Measured values pooled from the literature.
Each numbered part is a random draw from the data of one study; scales do not carry over between parts. Positions count from the first letter of the parent shown.

Set 1
Target: Histone acetyltransferase KAT6A, winged helix 2, GST fusion (KAT6A, Homo sapiens, UniProt Q92794, residues 85-181)
Technique: protein binding microarray
Form: double-stranded DNA, one strand shown
Sample: in vitro
Concentration: not given
Notes: 8-mer, flanks averaged, mean of 2 arrays, mostly near background
Baseline: not given
Reading: higher = stronger binding
Measurement: E-score
Construct (chain): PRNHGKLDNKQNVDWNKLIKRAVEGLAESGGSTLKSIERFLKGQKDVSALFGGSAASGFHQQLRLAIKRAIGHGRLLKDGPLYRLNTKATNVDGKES
AATCCCTG: 0.00434
TGTTTGAA: 0.0679
CCTAAAGA: -0.0695
GATCAGAA: -0.0314
CGGAGGTA: 0.00902
CCTGTACC: -0.0284
CAATTGCA: -0.135
AGTTCCAG: -0.0444
ACCAAAGG: -0.126
AACCGGGT: 0.00936
CAACAGTC: -0.134
AGAAAGTC: -0.156
CAGCTAGA: -0.0107
ATGCAACC: 0.0672
CAATATCC: 0.0135
AAAAGCAG: 0.0792
CGCCCGAA: 0.0652
AATCTCAA: -0.0564
CATATTGG: -0.0798
AATCGATG: 0.0115
AGGTTCTG: -0.0764
GGAGGACC: -0.0281
GAGAAAAC: -0.0675
TGCCGCCA: 0.156
ACTACAGA: -0.00337

Set 2
Target: ABI1, truncated, D143A, DHFR fusion (Arabidopsis thaliana)
Technique: DHFR PCA, deep sequencing
Sample: yeast
Notes: methotrexate growth selection, single substitutions
Together with: (+)-ABA 710 µM
Baseline: wild-type fitted maximum
Reading: higher = stronger binding
Measurement: relative binding score
Parent: PYL1, truncated, DHFR fusion (Arabidopsis thaliana); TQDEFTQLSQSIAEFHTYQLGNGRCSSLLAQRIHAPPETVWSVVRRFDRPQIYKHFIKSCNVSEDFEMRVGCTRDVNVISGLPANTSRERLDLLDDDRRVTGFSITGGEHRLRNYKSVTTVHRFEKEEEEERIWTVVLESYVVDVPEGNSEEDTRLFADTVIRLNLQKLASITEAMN; partner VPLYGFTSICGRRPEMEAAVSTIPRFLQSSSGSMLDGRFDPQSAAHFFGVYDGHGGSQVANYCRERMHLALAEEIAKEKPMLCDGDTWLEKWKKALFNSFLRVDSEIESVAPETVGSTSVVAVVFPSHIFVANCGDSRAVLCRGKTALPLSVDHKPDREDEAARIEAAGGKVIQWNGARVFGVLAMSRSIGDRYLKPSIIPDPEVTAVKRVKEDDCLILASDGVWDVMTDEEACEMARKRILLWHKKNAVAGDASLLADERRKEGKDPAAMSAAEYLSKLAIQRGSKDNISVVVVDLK
R123Q: 111%
V43K: 85.1%
S140Y: 28.8%
D97C: 110%
S27Q: 99.7%
C72P: 54.8%
Y115W: 80.1%
G71V: 2.09%
T17V: 93.2%
I79W: 103%
M68R: 86.8%
V142R: 94.6%
A175H: 97.7%
V137Y: 21%
P36E: 105%
S11L: 97.3%
L93H: 110%
E89F: 8.02%
F157Q: 8.54%

Set 3
Target: RING finger protein unkempt homolog, zinc fingers 1-6, GST-SBP tag (UNK, Homo sapiens, UniProt Q9C0B0, residues 30-357)
Technique: RNA Bind-n-Seq
Form: RNA
Sample: in vitro
Concentration: not given
Notes: RNA with constant flanks, human-mouse chimeric sites, ends assumed
Baseline: input RNA pool
Reading: higher = stronger binding
Measurement: bound/input enrichment
Shared flanks, not repeated: GGGAGUUCUACAGUCCGACGAUC … CAACAGAGGAUUGAGCAUCA
Target sequence (chain): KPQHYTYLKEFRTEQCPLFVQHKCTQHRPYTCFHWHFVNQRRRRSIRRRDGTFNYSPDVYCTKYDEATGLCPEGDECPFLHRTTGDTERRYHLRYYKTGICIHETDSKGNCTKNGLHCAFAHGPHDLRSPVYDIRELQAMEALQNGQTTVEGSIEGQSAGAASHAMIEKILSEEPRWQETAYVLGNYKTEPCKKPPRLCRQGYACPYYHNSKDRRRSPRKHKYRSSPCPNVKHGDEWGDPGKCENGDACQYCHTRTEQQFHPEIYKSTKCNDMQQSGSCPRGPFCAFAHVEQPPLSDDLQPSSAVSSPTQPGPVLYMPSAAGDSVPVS
UAAGUCCUGUGCCAGCACUUCGCUCAUAAAGUUUUAAAUUCUGGACCAAUAGUGUUUGUUUCCUGAUUAUUGUAUCCAAUACUUUGCGUACUAUGUGACUCAUGCUUACUGAUAAUAAAA: 0.376 ratio
AGCGUUCAGGAAUUCAUGACCUUUACAAGUCAACUGAUUGUGGAACGCUCAUCGAAAGGCAGCAGAGCUUCUGUCAAAGAACAAGAGUAUCUUUGCCAUGUCUACGUCCGGAGCGACAGU: 0.0559 ratio
UAAGUCCUGUGCCAGCACUUCGCUCAUAAAGUUUUAAAUUCUGGACCAAUAGUGUUUGUUUCCUGAUUUUUGUAUUCAAUACUUUGCCUAGUAUGUAACUCACUCUUCUGGAUAAAUAAA: 1.37 ratio
GAAUCCUACUCAGGCGGAUUUUGCAACCUGAAUGCAACAGCAGCAGCAUCUUAGUCACAGUAGGGUAGUUUUGGGGCUCUGUGGCCAGGGUUUUAUUCACAUGCAGGUUUGGAAAAUGUA: 1.15 ratio
AAAGGCAAAAAGGGCAGCUGUGUCAUUUCAUAAGUAACUCUGGGGGAGGGAAAUUCUGUUCUUUUGUUUAAUUUUCCCCCAAAUGAAGCCAAAGUGUGUGUUGAAGAACUGAGAAAAAAU: 0.179 ratio
AUCCAGUACUCGAAUCACAAAGAACUAAAGACAGAUAAUACAUUAAACCAACGUGCUCAGGCAGUUCUUCAAGCUGUGACAGCGGUCCAGACAGCAAAUACUCCUCUUAGUGGCACCACA: 0.264 ratio
UAAAUUAGGGCUGCCGUUUUCUGUUUCUCCCUGGGCUGCGGAAAGCCAGAAGAUUUUAUCUAGCUUAAACCAGGCUGCUGGUGUUCCCUCUUUUUUUCCCUCUCUCUGUUUUUGGCUGCA: 1.14 ratio
GGCCUGGGACCGUCCUGGGCUAGUACAAAUAGCGGCAGUGGAGGCUCGAGAGGAAAGUUGUUAGUGGGAGGCAGUGGUAGAGGCCGUCAUGUACGGUCCUUUACUCGAUAGAUGUGUUCU: 0.574 ratio

Set 4
Target: CCND1, cyclin fold, Cln2 fusion (human)
Technique: yeast growth competition, sequencing
Sample: yeast
Notes: strong parent motif
Baseline: not given
Reading: higher = stronger binding
Measurement: normalised enrichment score
Parent: RBL2 docking peptide (human); STTRRRLFVENDS; partner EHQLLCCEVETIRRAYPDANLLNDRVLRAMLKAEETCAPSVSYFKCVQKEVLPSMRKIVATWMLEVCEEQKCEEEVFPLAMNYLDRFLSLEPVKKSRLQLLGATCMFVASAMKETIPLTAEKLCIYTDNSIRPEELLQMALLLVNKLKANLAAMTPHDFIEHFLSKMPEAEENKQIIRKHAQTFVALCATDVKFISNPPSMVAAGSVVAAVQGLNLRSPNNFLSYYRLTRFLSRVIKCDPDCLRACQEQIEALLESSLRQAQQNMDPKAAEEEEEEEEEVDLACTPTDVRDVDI
STTRRLLFVENDS [R6L]: 1.37
STTRRRLIVENDS [F8I]: 0.0555
STTRRRLQVENDS [F8Q]: 0.157
STTRRRFFVENDS [L7F]: 0.16
STTPRRLFVENDS [R4P]: 1.42
STDRRRLFVENDS [T3D]: 0.267
STWRRRLFVENDS [T3W]: 0.163
STTRRRLCVENDS [F8C]: 0.0357
FTTRRRLFVENDS [S1F]: 0.00582
STTRVRLFVENDS [R5V]: 0.389
ATTRRRLFVENDS [S1A]: 0.649
STTRRRLFLENDS [V9L]: 0.858
STTRRRLFVEWDS [N11W]: 0.665
STGRRRLFVENDS [T3G]: 0.422
STTRFRLFVENDS [R5F]: -0.365
SATRRRLFVENDS [T2A]: 0.775
STTRRRHFVENDS [L7H]: -0.0692

Excerpt of the above (set 1):
AATCTCAA: -0.0564
TGTTTGAA: 0.0679
GAGAAAAC: -0.0675
AATCCCTG: 0.00434
CAATATCC: 0.0135
AACCGGGT: 0.00936
CCTAAAGA: -0.0695
CCTGTACC: -0.0284
CGCCCGAA: 0.0652
ACCAAAGG: -0.126
GATCAGAA: -0.0314
